Experimental data gathered from unrelated publications.
A part holds a random share of what one study measured.

Set 1
Target: Histone acetyltransferase KAT6A, winged helix 2, GST fusion (KAT6A, Homo sapiens, UniProt Q92794, residues 85-181)
Method: protein binding microarray
Molecule type: double-stranded DNA, one strand shown
Matrix: in vitro
Tested at: not given
Notes: 8-mer, flanks averaged, mean of 2 arrays, mostly near background
Baseline: not given
Direction: higher = stronger binding
Endpoint: E-score
Target sequence (chain): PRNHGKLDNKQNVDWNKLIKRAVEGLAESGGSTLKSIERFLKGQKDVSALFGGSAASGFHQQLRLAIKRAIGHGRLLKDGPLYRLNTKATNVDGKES
AGAGAGAG: -0.145
AGTGACCG: 0.0339
ACAATCTC: -0.177
CCCTCTCG: 0.0398
CTAATCGA: 0.0691
CTTGGACA: -0.0169
AACTGACC: -0.137
AACTTCAG: 0.0555
CTCCTATC: -0.059
AGTATAGG: -0.164
ACACCCTC: 0.062
AATAGGGT: -0.0931
CCCCCAGA: -0.0592
ACTTACGC: -0.0415
GTGGGTTA: 0.0946
CATTACCC: -0.243
CGACTTAA: -0.0483
AGAGCGCT: -0.136
GTCAACGA: -0.033
GGAATCAC: -0.147
ATACGCCG: -0.0556
CATCCAAA: -0.0873

Set 2
Target: Hepatocyte nuclear factor 3-alpha (Foxa1, Mus musculus, UniProt P35582, residues 1-468, full length assumed)
Method: EMSA with sequencing
Molecule type: double-stranded DNA, one strand shown
Matrix: in vitro
Tested at: 10 and 20 nM
Notes: whole designed probe, mean of two concentrations, ends assumed
Baseline: negative control set to 0
Direction: higher = stronger binding
Endpoint: normalised bound fraction
Constant ends, left off below: GTGAGCGGTGCCCATTGATGGGGAAC … TTTCACTGGGATCGTGGGGAC
Construct (chain): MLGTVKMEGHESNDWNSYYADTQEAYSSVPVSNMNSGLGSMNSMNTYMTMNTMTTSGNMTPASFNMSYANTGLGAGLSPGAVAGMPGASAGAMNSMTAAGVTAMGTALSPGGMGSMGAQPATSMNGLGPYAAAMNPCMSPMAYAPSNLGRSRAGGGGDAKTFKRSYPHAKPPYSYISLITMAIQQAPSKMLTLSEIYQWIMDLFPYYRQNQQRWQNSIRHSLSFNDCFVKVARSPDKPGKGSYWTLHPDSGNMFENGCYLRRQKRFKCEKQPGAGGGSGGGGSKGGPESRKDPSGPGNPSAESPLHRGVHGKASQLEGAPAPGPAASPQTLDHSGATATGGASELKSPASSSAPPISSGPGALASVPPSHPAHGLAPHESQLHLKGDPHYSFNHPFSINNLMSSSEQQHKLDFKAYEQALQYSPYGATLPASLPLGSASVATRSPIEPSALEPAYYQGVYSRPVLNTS
ATCACTGATAAGTGAAGTTCCATAGAGGCCTTCCAATACCCTGCTTAACAGCTTATAAGCAAATATGCCCACTAGTAAAGAATAAGTGTTATGTAAACAAGAAAGTATGCAAATTCTGGTCATGCTCATCAGCAAAGGCTTTTCTTGCAATAGACTGAGTGCCGTTTTCCAGGAGTTAATAAATTGGACAAAA: 0.542 ratio
TAATAAGTAGTAATGCAATTATATTCTAAAATTCAAATGAAAATGTCTATTACTTTATACAACTATACATCTTTAAACACGAGCAATCTACAAAGTAATCTCGGAATCTAAACTTACTGATGTATTCACCAAAATTACCTCTCCCTGATATATTATTCTATACATTATAAATGCCTGAGAATTGACACTTTTA: -0.0591 ratio
AGGTAGATCAAGTACTCATATCTCTATGTACAGATGACAATAAGTGATTTCTCAGGAGCAAACAAGGGGAGTTATTGTGATTGTCTGATGGTTAGATTACTCTGAGACTTACTCTGTTTCAACTTTCCACCTTTTCTTTATTTTCCGTCCCAGACAGAAAGATTCTTCTTCTAGATAGACTGTTACTTCTACT: 0.0678 ratio
TACTGAATAATAATTATTAAGCTATATACTTACAGAAAAGAGGATATGAAAATATTAATCAAGTATGAGCTGAACTGGTAACTTTTATGCACTGTCAACAAGAGATCTAAGATTTTTATTGAGCTCCTACCATAAAGACACATCATTTCAATTCAACCATCAGTAGCCTCTACTTTTTAAAAAAATATTTTTA: 0.0481 ratio
CCATACATCTTTATTTTAAGGAATATGATATGTAAAATCCTGGTCGATTACTTTAAAATATCGATAAATACCAAGTGTCTAAGCTATAGCTTAAGTAAACAAGGGAAGTAAGGACTTTGGCATTCTTAGCTCAAATACTTTTGACCTGTATGTACACATGATATCTTTTTAAAATTTTGTTTAGAAAATGCAA: 0.5 ratio

Set 3
Target: Interferon regulatory factor 3, full length, phosphomimetic (IRF3, Homo sapiens, UniProt Q14653, residues 1-427, S386D/S396D/S398D/S402D/T404D/S405D)
Method: protein-binding microarray
Molecule type: double-stranded DNA, one strand shown
Matrix: in vitro
Tested at: 2540 nM top
Notes: 60-bp whole probe
Added: salmon DNA 0.4 mg/ml
Baseline: random background probes
Direction: higher = stronger binding
Endpoint: fitted relative affinity
Constant ends, left off below: GCCTAGCAC … GTCTTGATTCGCTTGACGCTGCTG
Residues (chain): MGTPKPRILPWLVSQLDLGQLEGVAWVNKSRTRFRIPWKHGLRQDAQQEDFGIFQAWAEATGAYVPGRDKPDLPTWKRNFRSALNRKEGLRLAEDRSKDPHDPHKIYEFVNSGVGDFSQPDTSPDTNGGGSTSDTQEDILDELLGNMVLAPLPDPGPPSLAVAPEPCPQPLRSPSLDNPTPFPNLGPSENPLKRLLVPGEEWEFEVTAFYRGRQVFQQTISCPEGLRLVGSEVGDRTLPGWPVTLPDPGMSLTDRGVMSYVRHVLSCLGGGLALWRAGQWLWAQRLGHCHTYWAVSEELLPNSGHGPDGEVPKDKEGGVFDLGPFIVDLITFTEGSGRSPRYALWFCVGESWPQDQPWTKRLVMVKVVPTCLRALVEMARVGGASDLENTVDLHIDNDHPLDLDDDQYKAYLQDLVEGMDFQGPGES
TTAGGTATCGCGACTGGGTTAGTGCTA: -0.201 z-score
AACGATGCAAGTGCCCTTCGGTGCTAG: -0.432 z-score
TTAGCACTGGGGTTTCGATTAGTGCTA: 0.889 z-score
GACGGACTGCTTCTTCTGACGTGCTAG: -0.29 z-score
TTAGGACTGGATTTCGGTTAGTGCTAG: 0.857 z-score
TTAGGTATCGGTATCGGTTGGTGCTAG: 4.4 z-score
TTAGATTCCAGTTTCGAGTAGTGCTAG: 3.55 z-score
GGCAGGCTTGCCAGTTCCCCGTGCTAG: -0.803 z-score
GACGGTCTGGGGTATCGGGACGTGCTA: -0.499 z-score
TCAGGTTTCGACTTTCGGTTAGTGCTA: 4.03 z-score
GACGTACTGAGACTGGAGACGTGCTAG: -0.16 z-score
TTAGCTTTCGACACTGGGTTAGTGCTA: 0.453 z-score
TTAGGACTACTTCTCCTTTAGTGCTAG: 0.653 z-score
GACGGACTGGATTATCGGGACGTGCTA: -0.326 z-score
TTACGTTTCGACTATCGGTTAGTGCTA: 2.38 z-score
ATAGGTTTCCTTTTCCTTTAGTGCTAG: 11.9 z-score
TCAGACTTGATTTTGGTACTGTGCTAG: 0.155 z-score

Set 4
Target: RNA binding protein fox-1 homolog 2, RRM domain, GST-SBP tag (RBFOX2, Homo sapiens, UniProt O43251-10, residues 100-194)
Method: RNA Bind-n-Seq
Molecule type: RNA
Matrix: in vitro
Tested at: 365 nM
Notes: natural RNA segment, single round, ends assumed
Baseline: no-protein control
Direction: higher = stronger binding
Endpoint: RBNS enrichment (R)
Constant ends, left off below: GGGAGUUCUACAGUCCGACGAUC … UGGAAUUCUCGGGUGCCAA
Target sequence (chain): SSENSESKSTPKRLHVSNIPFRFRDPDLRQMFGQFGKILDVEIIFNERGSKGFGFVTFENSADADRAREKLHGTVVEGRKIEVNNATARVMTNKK
ACAAUGACUAGCUGUUGCUCUCCAAGCUAAGGGACCAUUCCCUGUCUUAUGCAUAUACGUAAUGUCACCUAUUUAGGUAUCAUCCUAUUUGAGAGUUUGAGGAACUGAAA: 0.993
ACAGAAUAAGCCAGAUCCUUGACUCUCAAGCCCCCAGUUUUUAAAAACAAGGUGUUCCUUGAUUUAUAAUCCUUCUUGUUUAUGCUGUGUUCUUUGAUUUAUAAUCCUUG: 0.435
UAUAAAUAUUAUAUAUUUUAUUUUUCAUACAUGUUUGAAUUGCGGAUCCAUGGAUGUUCCAUCUGUAGGACCAACUUGAUGUGCCCAUCCUGACAUUGUAUGCCACAAGA: 0.761
AAGAACCACAACAACAACCCCCCCAAAAAAUAAUCCAUAUAAUUUAAGUAUAUUGCUGGAGAGAGACUAUCCCACCACCUAUACAUCUACAAAGAUAUAUGUCUAAAGUU: 0.416
UCCUGUGUGGUUGCCCCGUGUCCUCUGGCCUAGGGUUAAGUGUGCAAGAUAACUACUCGUGAGUAUUCAGAAUGUUGUUCCUAAUAAAUGCACUUGUUGUCUGUCUUCUU: 0.363
CUUCUCAACCCUAGACAAAGCCUUUGGCCAAGAGGGAGGUGCUGUUAGUUGGGCAGCCCUUCUGGGUUUCAGAGACCGGUGUUGGCUCUAGACUGGUCUCAUCUCCAUUG: 0.338
UUUGUGUGAUCAUUCCGAGUGUUGCUGCAAGAUUACAGUGGACGUGAUCUUUUAGCAUGUGCUUUUAUAAAAAGUGGUAGCUCCAGAUGAUAUAGCAAUCUACCUUAUAU: 0.655
CCAUGCCUGUGGGGAAACACUGCUUCAGAAAGCCUUCACCUACCCUCUGCCUCUAUUUCCCAGGACACCUAGAGGAUUCCCUUCUGAACCACCCCAGUGGGGUCUACCUG: 1.94

For quick reference, copied from above (set 4):
ACAGAAUAAGCCAGAUCCUUGACUCUCAAGCCCCCAGUUUUUAAAAACAAGGUGUUCCUUGAUUUAUAAUCCUUCUUGUUUAUGCUGUGUUCUUUGAUUUAUAAUCCUUG: 0.435
UAUAAAUAUUAUAUAUUUUAUUUUUCAUACAUGUUUGAAUUGCGGAUCCAUGGAUGUUCCAUCUGUAGGACCAACUUGAUGUGCCCAUCCUGACAUUGUAUGCCACAAGA: 0.761
AAGAACCACAACAACAACCCCCCCAAAAAAUAAUCCAUAUAAUUUAAGUAUAUUGCUGGAGAGAGACUAUCCCACCACCUAUACAUCUACAAAGAUAUAUGUCUAAAGUU: 0.416
UCCUGUGUGGUUGCCCCGUGUCCUCUGGCCUAGGGUUAAGUGUGCAAGAUAACUACUCGUGAGUAUUCAGAAUGUUGUUCCUAAUAAAUGCACUUGUUGUCUGUCUUCUU: 0.363
CUUCUCAACCCUAGACAAAGCCUUUGGCCAAGAGGGAGGUGCUGUUAGUUGGGCAGCCCUUCUGGGUUUCAGAGACCGGUGUUGGCUCUAGACUGGUCUCAUCUCCAUUG: 0.338
UUUGUGUGAUCAUUCCGAGUGUUGCUGCAAGAUUACAGUGGACGUGAUCUUUUAGCAUGUGCUUUUAUAAAAAGUGGUAGCUCCAGAUGAUAUAGCAAUCUACCUUAUAU: 0.655
CCAUGCCUGUGGGGAAACACUGCUUCAGAAAGCCUUCACCUACCCUCUGCCUCUAUUUCCCAGGACACCUAGAGGAUUCCCUUCUGAACCACCCCAGUGGGGUCUACCUG: 1.94
